Assay results collected from several papers.
A part holds a random share of what one study measured.
Chain of UniProt P11802 (whole entry, looked up): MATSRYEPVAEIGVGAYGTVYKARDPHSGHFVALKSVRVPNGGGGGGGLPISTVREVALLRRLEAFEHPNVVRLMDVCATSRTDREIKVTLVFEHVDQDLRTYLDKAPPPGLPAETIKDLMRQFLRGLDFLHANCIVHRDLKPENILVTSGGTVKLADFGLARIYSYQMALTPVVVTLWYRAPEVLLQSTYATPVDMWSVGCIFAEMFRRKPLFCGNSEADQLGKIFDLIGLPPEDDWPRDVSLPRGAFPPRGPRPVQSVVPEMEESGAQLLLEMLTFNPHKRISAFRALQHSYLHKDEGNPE
Chain of UniProt Q6DT37 (whole entry, looked up): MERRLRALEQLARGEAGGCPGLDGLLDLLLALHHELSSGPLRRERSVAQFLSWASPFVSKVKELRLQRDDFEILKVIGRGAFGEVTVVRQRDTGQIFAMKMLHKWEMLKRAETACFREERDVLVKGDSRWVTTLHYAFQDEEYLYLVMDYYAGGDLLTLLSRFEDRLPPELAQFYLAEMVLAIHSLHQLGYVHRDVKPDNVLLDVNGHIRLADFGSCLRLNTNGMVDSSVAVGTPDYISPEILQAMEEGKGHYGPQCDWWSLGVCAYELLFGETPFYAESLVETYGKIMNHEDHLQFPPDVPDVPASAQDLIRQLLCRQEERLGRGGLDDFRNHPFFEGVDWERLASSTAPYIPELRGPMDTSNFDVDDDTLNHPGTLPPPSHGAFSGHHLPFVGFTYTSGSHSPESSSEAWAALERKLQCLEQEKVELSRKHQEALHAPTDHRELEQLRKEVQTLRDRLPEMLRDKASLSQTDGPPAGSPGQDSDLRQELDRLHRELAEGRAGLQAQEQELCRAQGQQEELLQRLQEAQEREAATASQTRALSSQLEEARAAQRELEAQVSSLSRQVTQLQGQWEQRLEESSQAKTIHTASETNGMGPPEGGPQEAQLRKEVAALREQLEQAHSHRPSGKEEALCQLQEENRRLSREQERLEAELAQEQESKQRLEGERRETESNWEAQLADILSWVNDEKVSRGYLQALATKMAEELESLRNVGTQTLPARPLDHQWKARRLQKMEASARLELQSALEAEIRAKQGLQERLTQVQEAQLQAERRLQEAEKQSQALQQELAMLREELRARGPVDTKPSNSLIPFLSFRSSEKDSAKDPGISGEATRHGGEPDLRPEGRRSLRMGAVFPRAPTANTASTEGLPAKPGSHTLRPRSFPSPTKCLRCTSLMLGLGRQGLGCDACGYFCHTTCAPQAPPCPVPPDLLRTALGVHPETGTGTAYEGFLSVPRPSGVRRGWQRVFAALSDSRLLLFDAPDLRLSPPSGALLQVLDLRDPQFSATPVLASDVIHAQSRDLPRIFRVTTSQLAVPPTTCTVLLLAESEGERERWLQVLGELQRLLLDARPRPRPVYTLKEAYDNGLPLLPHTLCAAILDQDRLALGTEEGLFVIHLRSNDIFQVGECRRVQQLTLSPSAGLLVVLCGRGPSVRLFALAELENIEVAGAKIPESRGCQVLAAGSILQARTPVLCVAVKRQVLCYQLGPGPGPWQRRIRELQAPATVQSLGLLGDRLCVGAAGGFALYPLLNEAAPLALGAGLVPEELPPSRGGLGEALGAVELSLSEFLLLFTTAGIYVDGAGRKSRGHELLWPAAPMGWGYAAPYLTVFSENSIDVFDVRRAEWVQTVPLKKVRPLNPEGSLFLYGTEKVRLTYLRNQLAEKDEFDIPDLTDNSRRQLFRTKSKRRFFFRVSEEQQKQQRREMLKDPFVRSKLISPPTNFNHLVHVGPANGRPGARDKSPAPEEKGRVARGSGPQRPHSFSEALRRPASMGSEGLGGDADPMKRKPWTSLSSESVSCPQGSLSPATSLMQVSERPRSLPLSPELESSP
Chain of UniProt P54760 (whole entry, looked up): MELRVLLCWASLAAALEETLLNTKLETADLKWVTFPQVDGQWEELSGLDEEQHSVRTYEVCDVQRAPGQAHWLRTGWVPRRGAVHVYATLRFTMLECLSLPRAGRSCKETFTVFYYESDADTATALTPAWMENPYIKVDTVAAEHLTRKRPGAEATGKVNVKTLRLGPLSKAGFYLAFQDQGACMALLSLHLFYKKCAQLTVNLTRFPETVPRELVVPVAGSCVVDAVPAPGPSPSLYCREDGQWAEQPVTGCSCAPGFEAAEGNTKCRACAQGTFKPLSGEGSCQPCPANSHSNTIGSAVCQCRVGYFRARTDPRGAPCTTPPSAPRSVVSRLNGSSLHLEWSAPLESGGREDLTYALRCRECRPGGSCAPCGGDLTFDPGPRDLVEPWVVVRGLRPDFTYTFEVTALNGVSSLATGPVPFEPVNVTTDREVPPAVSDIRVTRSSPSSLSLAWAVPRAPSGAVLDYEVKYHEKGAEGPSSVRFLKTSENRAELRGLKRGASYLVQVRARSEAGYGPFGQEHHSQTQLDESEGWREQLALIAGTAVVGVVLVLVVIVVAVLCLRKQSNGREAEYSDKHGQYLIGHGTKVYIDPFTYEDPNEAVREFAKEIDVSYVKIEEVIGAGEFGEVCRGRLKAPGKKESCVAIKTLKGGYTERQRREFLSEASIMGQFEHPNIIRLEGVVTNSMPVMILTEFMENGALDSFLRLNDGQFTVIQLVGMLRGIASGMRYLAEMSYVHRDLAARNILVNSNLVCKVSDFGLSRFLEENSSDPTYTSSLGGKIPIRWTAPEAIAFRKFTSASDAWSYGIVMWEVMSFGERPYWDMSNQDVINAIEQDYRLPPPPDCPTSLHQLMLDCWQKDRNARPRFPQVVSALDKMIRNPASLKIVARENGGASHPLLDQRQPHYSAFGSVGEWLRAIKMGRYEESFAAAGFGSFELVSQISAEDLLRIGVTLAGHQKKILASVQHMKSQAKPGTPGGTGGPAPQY
Chain of UniProt Q9H2X6 (whole entry, looked up): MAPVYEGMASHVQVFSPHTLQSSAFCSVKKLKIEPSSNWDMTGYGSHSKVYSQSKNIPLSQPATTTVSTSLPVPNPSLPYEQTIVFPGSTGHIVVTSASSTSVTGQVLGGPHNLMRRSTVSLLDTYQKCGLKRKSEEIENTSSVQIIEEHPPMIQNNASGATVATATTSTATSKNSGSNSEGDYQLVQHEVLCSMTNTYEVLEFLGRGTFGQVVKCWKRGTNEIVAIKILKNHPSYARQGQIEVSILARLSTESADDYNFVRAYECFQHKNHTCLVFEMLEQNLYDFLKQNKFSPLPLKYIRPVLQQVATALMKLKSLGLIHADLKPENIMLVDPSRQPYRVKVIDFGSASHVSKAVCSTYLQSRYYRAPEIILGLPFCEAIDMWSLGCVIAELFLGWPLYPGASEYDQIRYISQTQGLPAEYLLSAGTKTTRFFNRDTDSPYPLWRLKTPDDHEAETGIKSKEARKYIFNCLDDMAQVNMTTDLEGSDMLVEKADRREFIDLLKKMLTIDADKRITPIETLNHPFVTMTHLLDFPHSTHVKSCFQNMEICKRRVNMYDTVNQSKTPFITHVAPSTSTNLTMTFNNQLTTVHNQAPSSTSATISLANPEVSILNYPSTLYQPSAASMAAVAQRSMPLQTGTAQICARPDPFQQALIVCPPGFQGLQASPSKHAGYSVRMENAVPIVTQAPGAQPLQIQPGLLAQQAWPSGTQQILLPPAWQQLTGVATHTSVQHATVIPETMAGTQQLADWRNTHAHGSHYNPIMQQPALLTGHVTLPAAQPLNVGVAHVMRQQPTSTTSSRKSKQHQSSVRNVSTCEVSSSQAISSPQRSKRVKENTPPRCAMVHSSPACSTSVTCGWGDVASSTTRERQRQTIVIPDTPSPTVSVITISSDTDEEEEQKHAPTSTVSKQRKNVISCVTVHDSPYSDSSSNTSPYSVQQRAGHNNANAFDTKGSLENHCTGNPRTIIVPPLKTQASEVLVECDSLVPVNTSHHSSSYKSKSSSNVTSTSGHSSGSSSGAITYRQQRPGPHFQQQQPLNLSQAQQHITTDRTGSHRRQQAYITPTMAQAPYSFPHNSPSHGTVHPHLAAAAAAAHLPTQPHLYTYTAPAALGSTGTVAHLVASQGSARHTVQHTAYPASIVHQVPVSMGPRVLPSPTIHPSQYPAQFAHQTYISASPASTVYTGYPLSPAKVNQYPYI
Chain of UniProt O43781 (whole entry, looked up): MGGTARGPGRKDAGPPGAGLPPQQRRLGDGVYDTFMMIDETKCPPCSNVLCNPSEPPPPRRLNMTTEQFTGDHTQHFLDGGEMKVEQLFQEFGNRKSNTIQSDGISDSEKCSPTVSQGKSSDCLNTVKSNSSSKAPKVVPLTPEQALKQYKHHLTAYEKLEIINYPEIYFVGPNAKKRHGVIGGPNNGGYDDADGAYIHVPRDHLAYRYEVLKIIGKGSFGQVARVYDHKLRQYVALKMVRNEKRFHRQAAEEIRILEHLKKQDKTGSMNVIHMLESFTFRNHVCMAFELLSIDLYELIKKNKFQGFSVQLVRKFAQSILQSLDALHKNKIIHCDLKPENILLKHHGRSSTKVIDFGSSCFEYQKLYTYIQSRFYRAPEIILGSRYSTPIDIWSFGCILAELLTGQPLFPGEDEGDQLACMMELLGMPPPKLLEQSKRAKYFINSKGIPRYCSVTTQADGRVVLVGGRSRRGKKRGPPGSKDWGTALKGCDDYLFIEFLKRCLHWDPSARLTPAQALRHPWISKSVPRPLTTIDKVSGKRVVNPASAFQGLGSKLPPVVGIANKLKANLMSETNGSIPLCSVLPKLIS
Chain of UniProt P51955 (whole entry, looked up): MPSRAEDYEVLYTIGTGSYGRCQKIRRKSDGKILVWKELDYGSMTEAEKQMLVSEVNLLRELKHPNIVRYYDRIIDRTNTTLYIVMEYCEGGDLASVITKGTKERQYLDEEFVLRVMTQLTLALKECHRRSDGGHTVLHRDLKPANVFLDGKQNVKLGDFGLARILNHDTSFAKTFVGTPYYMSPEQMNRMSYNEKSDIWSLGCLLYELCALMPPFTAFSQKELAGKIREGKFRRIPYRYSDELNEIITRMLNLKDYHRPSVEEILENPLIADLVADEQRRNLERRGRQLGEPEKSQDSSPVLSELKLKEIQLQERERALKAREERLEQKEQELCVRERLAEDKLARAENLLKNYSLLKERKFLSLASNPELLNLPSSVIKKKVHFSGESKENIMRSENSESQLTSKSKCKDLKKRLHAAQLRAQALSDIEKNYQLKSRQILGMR

Set 1 — SMILES: CCN1/C(=C/C(C)=O)Sc2ccc(OC)cc21; read-out: enzyme activity; action: inhibitor; concentration: 0.5 µM; baseline: control
target	remaining activity [%]
WNK3 (Homo sapiens, UniProt Q9BYP7)	88.1
STK16 (Homo sapiens, UniProt O75716)	87.4
Cyclin-dependent kinase 1, with cyclin B (CDK1, Homo sapiens, UniProt P06493)	93.2
RPS6KA6 (Homo sapiens, UniProt Q9UK32)	89
Cyclin-dependent kinase 6, with cyclin D3 (CDK6, Homo sapiens, UniProt Q00534)	104
CAMK2B (Homo sapiens, UniProt Q13554)	102
PDPK1 (Homo sapiens, UniProt O15530)	97.5
SRMS (Homo sapiens, UniProt Q9H3Y6)	84.7
DYRK3 (Homo sapiens, UniProt O43781)	50.4
HIPK4 (Homo sapiens, UniProt Q8NE63)	94
MAP4K4 (Homo sapiens, UniProt O95819)	83.2
EPHB4 (Homo sapiens, UniProt P54760)	92.4
AXL (Homo sapiens, UniProt P30530)	105
BLK (Homo sapiens, UniProt P51451)	95.4
Cyclin-dependent kinase 4, with cyclin D3 (CDK4, Homo sapiens, UniProt P11802)	97.4
STK17A (Homo sapiens, UniProt Q9UEE5)	99.3
PHKG1 (Homo sapiens, UniProt Q16816)	89.5
RPS6KA5 (Homo sapiens, UniProt O75582)	87.4
HIPK2 (Homo sapiens, UniProt Q9H2X6)	100
TSSK2 (Homo sapiens, UniProt Q96PF2)	106
EPHB1 (Homo sapiens, UniProt P54762)	90.6
MAPKAPK3 (Homo sapiens, UniProt Q16644)	90.1

Set 2 — dose: dose not given
Structure (SMILES): CC(=O)N[C@@H](Cc1c[nH]c2ccccc12)C(=O)N[C@@H](CCC(=O)C=[N+]=[N-])C(=O)OC(C)C
assay	system	scale	fold change
item: phosphopantetheine	mouse, EL4 tumour-bearing, EL4 tumour	baseline: vehicle	0.27
metabolomics, item: uridine 2'-monophosphate	mouse, EL4 tumour	baseline: vehicle	2.43
item: anserine	mouse, EL4 tumour-bearing, EL4 tumour	baseline: vehicle	3.64
item: glutamate gamma-methyl ester	mouse, EL4 tumour, tumour	baseline: vehicle	0.132
item: succinate	mouse, EL4 tumour-bearing, EL4 tumour	baseline: vehicle	0.363
metabolomics, item: N-acetylaspartate	mouse, EL4 tumour	baseline: vehicle	3.29
item: pyrraline	mouse, EL4 tumour-bearing, EL4 tumour	baseline: vehicle	0.497
item: quinate	mouse, EL4 tumour-bearing, EL4 tumour	baseline: vehicle	6.53
item: argininosuccinate	mouse, EL4 tumour-bearing, EL4 tumour	baseline: vehicle	0.492
item: hypotaurine	mouse, EL4 tumour-bearing, EL4 tumour	baseline: vehicle	0.214
item: sucrose	mouse, EL4 tumour-bearing, EL4 tumour	baseline: vehicle	3.25
item: dehydroascorbate	mouse, EL4 tumour-bearing, EL4 tumour	baseline: vehicle	2.21
item: 4-hydroxyphenylpyruvate	mouse, EL4 tumour-bearing, EL4 tumour	baseline: vehicle	2.59
item: 5-methylcytidine	mouse, EL4 tumour-bearing, EL4 tumour	baseline: vehicle	0.467
item: catechol sulfate	Mus musculus, EL4 tumour	baseline: over vehicle	2.09
item: carotene diol	Mus musculus, EL4 tumour	baseline: over vehicle	2.27
item: betaine aldehyde	Mus musculus, EL4 tumour	baseline: over vehicle	0.372

Set 3 — SMILES: CC(C)CN(C)c1nc(N)c(C(=O)N=C(N)N)nc1Cl; read-out: β-arrestin recruitment; action: agonist; technique: PRESTO-Tango; concentration: 10 µM; baseline: untreated
target	fold over basal
S1PR4 (Homo sapiens, UniProt O95977)	1.06
G-protein coupled receptor 171 (GPR171, Homo sapiens, UniProt O14626)	0.91
Trace amine-associated receptor 6 (TAAR6, Homo sapiens, UniProt Q96RI8)	0.81 fold
GPR37L1 (Homo sapiens, UniProt O60883)	0.64
SSTR1 (Homo sapiens, UniProt P30872)	0.87
GRM8 (Homo sapiens, UniProt O00222)	0.65 fold
CHRM3 (Homo sapiens, UniProt P20309)	0.6
Opsin-5 (OPN5, Homo sapiens, UniProt Q6U736)	1.14
G-protein coupled receptor 157 (GPR157, Homo sapiens, UniProt Q5UAW9)	0.71
Metabotropic glutamate receptor 6 (Homo sapiens, UniProt O15303)	0.79 fold
CXCR4 (Homo sapiens, UniProt P61073)	0.55

Set 4 — SMILES: c1ccc(N2CCN(Cc3nc4ccccc4[nH]3)CC2)nc1; concentration: 1 µM
target	assay	remaining binding [%]
PIK3CA (Homo sapiens, UniProt P42336, I800L)	cell-free assay, competition with immobilised ligand	78
IKBKB (Homo sapiens, UniProt O14920)	cell-free assay, competition with immobilised ligand	100
FGFR3 (Homo sapiens, UniProt P22607)	cell-free assay, competition with immobilised ligand	96
CDC42BPG (Homo sapiens, UniProt Q6DT37)	competition binding	100
PRKAA1 (Homo sapiens, UniProt Q13131)	cell-free assay, competition with immobilised ligand	100
Insulin receptor (INSR, Homo sapiens, UniProt P06213)	cell-free assay, competition with immobilised ligand	100
MAP2K6 (Homo sapiens, UniProt P52564)	binding, competition with immobilised ligand	100
Tyrosine-protein kinase ABL1, non-phosphorylated (ABL1, Homo sapiens, UniProt P00519, F317I)	binding, competition with immobilised ligand	100
PDGFRA (Homo sapiens, UniProt P16234)	cell-free assay, competition with immobilised ligand	100
WEE1 (Homo sapiens, UniProt P30291)	binding, competition with immobilised ligand	100
FGR (Homo sapiens, UniProt P09769)	cell-free assay, competition with immobilised ligand	100
Ribosomal protein S6 kinase alpha-2, N-terminal kinase domain (RPS6KA2, Homo sapiens, UniProt Q15349)	binding, competition with immobilised ligand	99
TRPM6 (Homo sapiens, UniProt Q9BX84)	cell-free assay, competition with immobilised ligand	100
Tyrosine-protein kinase ABL1, phosphorylated (ABL1, Homo sapiens, UniProt P00519, M351T)	binding, competition with immobilised ligand	100
MAP4K1 (Homo sapiens, UniProt Q92918)	binding, competition with immobilised ligand	100
Tyrosine-protein kinase ABL1, phosphorylated (ABL1, Homo sapiens, UniProt P00519)	binding, competition with immobilised ligand	100
SRPK2 (Homo sapiens, UniProt P78362)	binding, competition with immobilised ligand	100
Ribosomal protein S6 kinase alpha-4, N-terminal kinase domain (RPS6KA4, Homo sapiens, UniProt O75676)	binding, competition with immobilised ligand	100
ULK2 (Homo sapiens, UniProt Q8IYT8)	binding, competition with immobilised ligand	100
Tyrosine-protein kinase JAK1, JH1 (JAK1, Homo sapiens, UniProt P23458)	binding, competition with immobilised ligand	91
ALK (Homo sapiens, UniProt Q9UM73, L1196M)	cell-free assay, competition with immobilised ligand	97
NTRK3 (Homo sapiens, UniProt Q16288)	cell-free assay, competition with immobilised ligand	87
NEK2 (Homo sapiens, UniProt P51955)	binding, competition with immobilised ligand	100
DYRK2 (Homo sapiens, UniProt Q92630)	binding, competition with immobilised ligand	100
Cyclin-dependent kinase 4, with cyclin D1 (CDK4, Homo sapiens, UniProt P11802)	binding, competition with immobilised ligand	100

A few entries again (set 4):
target	assay	remaining binding [%]
PIK3CA (Homo sapiens, UniProt P42336, I800L)	cell-free assay, competition with immobilised ligand	78
NEK2 (Homo sapiens, UniProt P51955)	binding, competition with immobilised ligand	100
CDC42BPG (Homo sapiens, UniProt Q6DT37)	competition binding	100
Tyrosine-protein kinase JAK1, JH1 (JAK1, Homo sapiens, UniProt P23458)	binding, competition with immobilised ligand	91
Insulin receptor (INSR, Homo sapiens, UniProt P06213)	cell-free assay, competition with immobilised ligand	100
Tyrosine-protein kinase ABL1, non-phosphorylated (ABL1, Homo sapiens, UniProt P00519, F317I)	binding, competition with immobilised ligand	100
DYRK2 (Homo sapiens, UniProt Q92630)	binding, competition with immobilised ligand	100
PDGFRA (Homo sapiens, UniProt P16234)	cell-free assay, competition with immobilised ligand	100
Ribosomal protein S6 kinase alpha-2, N-terminal kinase domain (RPS6KA2, Homo sapiens, UniProt Q15349)	binding, competition with immobilised ligand	99
ALK (Homo sapiens, UniProt Q9UM73, L1196M)	cell-free assay, competition with immobilised ligand	97
Tyrosine-protein kinase ABL1, phosphorylated (ABL1, Homo sapiens, UniProt P00519)	binding, competition with immobilised ligand	100
FGFR3 (Homo sapiens, UniProt P22607)	cell-free assay, competition with immobilised ligand	96
